Experimental data gathered from unrelated publications.
Lines come from different studies, so protocols differ. Numbers after ± are the reported error.

The IC50 of C#CCN1CCc2c3n(c4ccccc24)C(=O)C(=C)CC3(C(=O)OC)C1 (stereo not drawn) is reported as 1.99 µM (Hepatitis B virus; viral replication, inhibitor, ELISA; HePAD38).
For O=[N+]([O-])c1ccc(/C=N/N=C/c2ccc(Br)cc2)s1, the IC50 was 1.01 ± 0.25 µM (Trypanosoma brucei gambiense; parasite growth, CellTiter-Glo; IL1922 bloodstream form; 72 h).
The IC50 of CCOC(=O)C(C)NC(=O)CN1C(=O)N/C(=C\c2ccc(C)cc2)C1=O (stereo not drawn) is reported as > 57 µM (Trypanosoma brucei gambiense; cell viability; IL1922; 72 h).
With COC(=O)C1=CO[C@@H](C)[C@@H]2Cn3ccc4c5ccccc5nc-4c3C[C@H]12 the IC50 was 40.6 ± 16.2 µM (Plasmodium falciparum; [3H]hypoxanthine incorporation; 3D7; 48 h).
O=[N+]([O-])c1ccc(/C=N/N=C/c2ccc(O)cc2)o1 has an IC50 of 5.47 ± 0.23 µM (Trypanosoma brucei gambiense; parasite growth, CellTiter-Glo; IL1922 bloodstream form; 72 h).
N[C@H]1C[C@@H]1c1ccc(-c2cccc(O)c2)cc1 gave an IC50 of ~10 µM (herpes simplex virus 1; viral IE gene expression, qRT-PCR; HeLa; 4 h pretreatment, infection 2 h).
With CCOC(=O)C(NC(=O)CN1C(=O)N/C(=C\c2ccc3c(c2)OCO3)C1=O)C(C)C (stereo not drawn) the IC50 was > 66 µM (Trypanosoma brucei gambiense; cell viability; IL1922; 72 h).
The IC50 of C#CCN1CCc2c(n(C(=C)C(=O)OC)c3ccccc23)C(C(=O)OC)C1 (stereo not drawn) is reported as 1.34 µM (Hepatitis B virus; viral replication, inhibitor, ELISA; HePAD38).
For O=[N+]([O-])c1ccc(/C=N/N=C/c2ccc(Cl)cc2)s1, the IC50 was 1.04 ± 0.23 µM (Trypanosoma brucei gambiense; parasite growth, CellTiter-Glo; IL1922 bloodstream form; 72 h).
With CCN(CC)CC#CCNc1ccnc2cc(Cl)ccc12 the IC50 was 0.327 µM (Plasmodium falciparum; schizont maturation; field isolates; 20% human serum).
CN(C(=O)c1ccn2ncc(-c3ccc(C(N)=O)cc3)c2c1)c1ccc(C#N)cn1 gave an IC50 of 0.063 µM (Cryptosporidium parvum; parasite growth, imaging; HCT-8; intracellular).
The IC50 of CCOC(=O)CNC(=O)CN1C(=O)S/C(=C\c2ccc(C)cc2)C1=O is reported as > 63 µM (Trypanosoma brucei gambiense; cell viability; IL1922; 72 h).
COc1ccc(/C=N/N=C/c2ccc([N+](=O)[O-])o2)cc1 has an IC50 of 3.43 ± 1.2 µM (Trypanosoma brucei gambiense; parasite growth, CellTiter-Glo; IL1922 bloodstream form; 72 h).
With Cn1cc(-c2ccc3ccccc3c2)c2ccc(Cl)nc21 the IC50 was 170 µM (Human immunodeficiency virus 1; cell growth or viability, MTT; TZM-bl; 48 h).
The IC50 of O=C(O)[C@H](Cc1ccc2ccccc2c1)NC(=O)C1(c2ccc3ccccc3c2)CCN(S(=O)(=O)c2ccc([N+](=O)[O-])cc2)CC1 is reported as 17 µM (Human immunodeficiency virus 1; viral replication, inhibitor).
With COc1ccc(/C=N/N=C/c2ccc([N+](=O)[O-])s2)cc1 the IC50 was 2.65 ± 0.42 µM (Trypanosoma evansi; parasite growth, CellTiter-Glo; Tansui bloodstream form; 72 h).
CCOC(=O)C(CC)NC(=O)CN1C(=O)S/C(=C\c2ccc(C)cc2)C1=O (stereo not drawn) has an IC50 of > 59 µM (Trypanosoma brucei gambiense; cell viability; IL1922; 72 h).
The IC50 of C#CCN1CCc2c([nH]c3ccccc23)C(=C)C1=O is reported as 3.16 µM (Hepatitis B virus; viral replication, inhibitor, ELISA; HePAD38).
The IC50 of CCOC(=O)C(CC)NC(=O)CN1C(=O)S/C(=C\c2ccc([N+](=O)[O-])cc2)C1=O (stereo not drawn) is reported as > 66 µM (Trypanosoma brucei gambiense; cell viability; IL1922; 72 h).
With O=[N+]([O-])c1ccc(/C=N/N=C/c2ccc(F)cc2)o1 the IC50 was 2.66 ± 1.02 µM (Trypanosoma evansi; parasite growth, CellTiter-Glo; Tansui bloodstream form; 72 h).
The IC50 of O=C(Nc1cccc(C(=O)Nc2ccc(S(=O)(=O)O)c3cc(S(=O)(=O)O)cc(S(=O)(=O)O)c23)c1)Nc1cccc(C(=O)Nc2ccc(S(=O)(=O)O)c3cc(S(=O)(=O)O)cc(S(=O)(=O)O)c23)c1 is reported as > 25 µM (Hepatitis C virus; viral replication, inhibitor, luciferase; Huh7.5; 72 h, replicon).

For quick reference, copied from above:
For O=[N+]([O-])c1ccc(/C=N/N=C/c2ccc(Cl)cc2)s1, the IC50 was 1.04 ± 0.23 µM (Trypanosoma brucei gambiense; parasite growth, CellTiter-Glo; IL1922 bloodstream form; 72 h).
